Results of several laboratories.
Several values in a cell are separate wells, animals, samples, runs or records.

SMILES | target or system | assay | test system | setting | how to read | endpoint | result
Cc1n[nH]c2ccc(-c3cc(OC[C@@H](N)Cc4ccccc4)cnc3-c3ccoc3)cc12 | – | kinase binding, competitor, MIB/MS competition, item: AKL1 | Candida albicans cell lysate | 1 µM | baseline: DMSO | log2 fold change | -1.01
CC(C)NCC(O)c1ccc(O)c(O)c1 (stereo not drawn) | – | – | ventricular cardiomyocytes, C57BL/6 mouse | dose not given, 0.616 s | – | sarcomere length | 1.71 µm
NC(=O)c1cnc2[nH]ccc2c1N[C@@H]1[C@@H]2CC3C[C@H]1C[C@@](O)(C3)C2 | – | flow cytometry, item: CD4+ central memory T cells | Japanese healthy subjects, peripheral blood | oral, 10 mg twice daily, day 7 | – | change from baseline | 0.55%
O=C(O)CNC(=O)Cc1ccccc1 | – | – | ventricular cardiomyocytes, C57BL/6 mouse | dose not given, 0.644 s | – | sarcomere length | 1.71 µm
O=C(NCCc1cccnc1)c1ccc(C2CCCCC2)cc1 | – | hepatocyte stability | cryopreserved mouse hepatocytes | 1 µM | – | hepatic clearance | 74 mL/min/kg
N#Cc1ccc2c(-c3ccncc3)c(-c3ccc(F)cc3)nn2c1 | – | kinase binding, competitor, MIB/MS competition, item: HRK1 | Candida albicans cell lysate | 1 µM | baseline: DMSO | log2 fold change | 0.236
C[C@H]1C[C@H]2CSC(N)=N[C@@]2(c2nc(NC(=O)c3ccc(OC(F)F)cn3)cs2)CO1 | – | item: Aβx-40 | healthy adults, plasma | 400 mg single dose, 8 h post-dose | baseline: placebo | percent change from baseline | -63.1%
C[C@H]1O[C@@H](O[C@H]2CC[C@@]3(C)[C@@H](CC[C@]4(C)[C@@H]3C=C[C@]35OC[C@@]6(CCC(C)(C)C[C@H]63)[C@@H](O)C[C@]54C)[C@]2(C)CO)[C@H](O)[C@@H](O[C@@H]2O[C@H](CO)[C@@H](O)[C@H](O)[C@H]2O)[C@H]1O | – | Western blot, item: PPARα | chronic-plus-binge ethanol-fed mice, liver | dose not given, high dose, unit not given | baseline: β-actin | protein level | 0.92 and 1.38 and 0.941
OC(CCN1CCCCC1)(c1ccccc1)C1CC2C=CC1C2 (stereo not drawn) | – | resting-state EEG | healthy elderly humans | oral, 2 mg, eyes open, LS mean | baseline: baseline | change in EEG Beta3-power Pz-O2 | 18.2%
CC(=O)N1CC(C(=O)Nc2ccc([C@H]3[C@@H](F)[C@@H](F)C[C@@H](F)[C@H]3F)cc2)C1 | – | hepatocyte stability | cryopreserved human hepatocytes | 1 µM | – | hepatic clearance | 6.2 mL/min/kg
C[C@H](Oc1ccc(Br)cc1-c1ccon1)C(=O)O | – | relative refractory period | human, tibialis anterior muscle | 800 mg, SAD | – | difference from placebo | 0.231 ms
Cn1cc(-c2ccc(-c3cncc(Cl)c3N3CCC4(CCNC4=O)CC3)cc2)cn1 | COLO 205 | microarray, item: EDN1 | – | concentration not given, 2 h, gene set Endothelin-1 | baseline: untreated cells | fold change in expression | 2.01
